Literature values as cited in several papers.
Each line is one published result; not all experiments were run side by side. Numbers after ± are the reported error. Where no end group is shown, it is not given here.
Sequence of UniProt P0DOF5 (whole entry, looked up): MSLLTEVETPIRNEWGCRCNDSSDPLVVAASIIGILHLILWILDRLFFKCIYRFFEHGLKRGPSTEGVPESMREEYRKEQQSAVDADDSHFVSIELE

Substance = Cn1c(Cn2ccc(C(F)(F)F)c(Oc3cc(Cl)cc(C#N)c3)c2=O)n[nH]c1=O; target or system = HIV-1; assay = viral replication; test system = MT-4, Y181C mutant; endpoint = EC50; result = 26.8 ± 7.1 nM
Substance = maraviroc; target or system = HIV-1; assay = viral infection; test system = Env-pseudovirus panel; endpoint = IC90; result = 2 nM
Substance = C[C@@H]1CCO[C@H]2Cn3cc(C(=O)NCc4ccc(F)cc4F)c(=O)c(O)c3C(=O)N12; target or system = HIV-1; assay = viral replication, single-round vector infection; test system = IN G140S/Q148H; endpoint = EC50; result = 6.4 ± 1.6 nM
Substance = Z-FA-FMK; target or system = Replicase polyprotein 1ab, main protease (rep, Severe acute respiratory syndrome coronavirus 2, UniProt P0DTD1); assay = gain-of-signal; endpoint = IC50; result = > 25000 nM
Substance = CCN(CCO)CCCC(C)Nc1ccnc2cc(Cl)ccc12 (stereo not shown); target or system = Ebola virus; assay = viral replication; test system = Vero E6, eGFP reporter; endpoint = EC50; result = 22000 nM
Substance = M2 transmembrane domain (Influenza A virus, UniProt P0DOF5); assay = solid-state NMR, refers to: His37; test system = lipid bilayers; conditions = tetramer, fourth protonation; endpoint = pKa; result = < 5
Substance = MLEPFQILSISSFILSALHFMAWTIGHLNQIKR (BM2 transmembrane domain (Influenza B virus)); assay = solid-state NMR, refers to: His27; test system = peptide, lipid membrane; conditions = average of tetrad pKa values; endpoint = pKa; result = 6.4
Substance = CC(CN1c2ccccc2Sc2ccccc21)N(C)C (stereo not shown); target or system = Marburg virus; assay = pseudovirus entry, HIV pseudotype luciferase reporter; test system = A549; endpoint = IC50; result = 19100 nM
Substance = C[C@H]1CO[C@@H]2Cn3cc(C(=O)NCc4ccc(F)cc4F)c(=O)c(O)c3C(=O)N12; target or system = HIV-1; assay = viral replication, single-round vector infection; test system = IN G140S/Q148H; endpoint = EC50; result = 23.5 ± 7.2 nM
Substance = CCCNC(=O)[C@H]1O[C@@H]1C(=O)N[C@H](C(=O)N1CCC[C@H]1C(=O)O)[C@@H](C)CC; target or system = Ebola virus; assay = viral replication; conditions = concentration not given; endpoint = infectious progeny yield; result = decreased
Substance = Tannic acid; target or system = SARS-CoV-2 main protease; assay = enzyme activity, inhibitor; endpoint = IC50; result = 13400 nM
Substance = M2 (Influenza A virus, UniProt P0DOF5); assay = NMR, refers to: His37; conditions = tetramer, lowest pKa, fourth protonation; endpoint = pKa; result = < 5
Substance = Fc1ccc([C@@H]2CCNC[C@H]2COc2ccc3c(c2)OCO3)cc1; target or system = Ebola virus; assay = viral replication; test system = Vero E6, eGFP reporter; endpoint = EC50; result = 27000 nM
Substance = O=C(NCc1c(F)cc(F)cc1F)c1cn2c(c(O)c1=O)C(=O)N1[C@H]3CC[C@H](C3)O[C@@H]1C2; target or system = HIV-1; assay = viral replication, single-round vector infection; test system = IN R263K; endpoint = EC50; result = 4.8 ± 0.8 nM
Substance = CCC(CC)COC(=O)[C@H](C)N[P@](=O)(OC[C@H]1O[C@@](C#N)(c2ccc3c(N)ncnn23)[C@H](O)[C@@H]1O)Oc1ccccc1; target or system = Ebola virus; assay = viral replication; endpoint = EC50; result = 60 to 140 nM
Substance = GDCLPHLKRCKENNDCCSKKCKRRGTNPEKRCR (opicalcin 1; ends and bridges not checked; cysteine pairing not given here; sequence looked up); target or system = RyR1; assay = [3H]ryanodine binding stimulation, activator; test system = peptide; endpoint = Kd; result = 0.3 ± 0.04 nM

A few entries again:
Substance = maraviroc; target or system = HIV-1; assay = viral infection; test system = Env-pseudovirus panel; endpoint = IC90; result = 2 nM
Substance = Z-FA-FMK; target or system = Replicase polyprotein 1ab, main protease (rep, Severe acute respiratory syndrome coronavirus 2, UniProt P0DTD1); assay = gain-of-signal; endpoint = IC50; result = > 25000 nM
